Experimental data of several laboratories.
“And” joins repeats or separate records; there may be more than shown. ± marks the error that the study gave.

SMILES | test | system | setting | how to read | measurement | result
O=C(Nc1cnccc1-c1ccc([18F])nc1)c1ccnc(NC(=O)C2CC2)c1 |  | FVB/NJ mice, both sexes, brain | intravenous, 50 min, median, no P-gp inhibitor |  | SUV | 0.046
CCCCN1C(=O)c2cccc3c(NCCCCCN4CCOCC4)ccc(c23)C1=O |  | methanol |  |  | fluorescence quantum yield | 1.16
N#C[C@@H]1CC(F)(F)CN1C(=O)CNC(=O)c1ccnc2c(NC(=O)[C@H](CCCCNC(=O)CCOCCOCCOCCOCCOCCOCCNC(=O)CN3CCN(CC(=O)[O-])CCN(CC(=O)[O-])CCN(CC(=O)[O-])CC3)NC(=O)CCCc3ccc(I)cc3)cccc12.[177Lu+3] |  | human serum | 4 h, 37 °C, 177Lu-labelled |  | radiochemical stability | 95.2 ± 1.4%
CN1CCC[C@]1(C)/C=C/S(=O)(=O)NC(=O)Nc1c2c(cc3c1CCC3)CCC2 | item: general and administration site disorders | human | oral, 100 mg twice daily, 14 days, multiple ascending dose |  | subjects with adverse event | 0%
N#C[C@@H]1CC(F)(F)CN1C(=O)CNC(=O)c1ccnc2c(NC(=O)C(N)CCCCNC(=O)CCOCCOCCOCCOCCOCCOCCNC(=O)CN3CCN(CC(=O)[O-])CCN(CC(=O)[O-])CCN(CC(=O)[O-])CC3)cccc12.[68Ga+3] (some centres unmarked) |  | PBS | 120 min, 37 °C, 68Ga-labelled |  | radiochemical stability | 98.58 ± 0.2%
Cc1ccc(OCC(=O)N(Cc2cccs2)c2ccn[nH]2)cc1 |  | rat plasma | 750 ng/mL, 6 h, 37 °C, unit not given | baseline: time zero | remaining compound | 0.3
COc1ccc2c(c1)CN(C(=O)CCN1CCC(Cc3ccccc3)CC1)CC[S+]2[O-] (centres unmarked) |  | dog plasma | 250 ng/mL |  | fu | 0.299
C=CC(=O)Nc1cc(Nc2nccc(-c3cn(C)c4ccccc34)n2)c(OC)cc1N(C)CCNC | storage stability | human dried blood spot | 2 h, on ice, LLOQ level |  | recovery | 102%
C=C(NC(=O)c1csc(-c2nc3c(cc2O)-c2nc(cs2)C(=O)NC(C(C)O)C(=O)NC(=C(C)OC)c2nc(cs2)C(=O)NC2c4nc(cs4)C(=O)NC(COC(=O)c4c5c6c(cccc6n4O)COC(=O)C(OC4CC(C)(O)C(N(C)C)C(C)O4)C2OC5)c2nc-3cs2)n1)C(N)=O (centres unmarked) |  | male cynomolgus monkey, plasma | intravenous, 1 mg/kg, single dose, infusion |  | Tmax | 1.8 min
N#C[C@@H]1CC(F)(F)CN1C(=O)CNC(=O)c1ccnc2c(NC(=O)CCOCCOCCOCCOCCOCCOCCNC(=O)[C@H](CCCCNC(=O)CN3CCN(CC(=O)[O-])CCN(CC(=O)[O-])CCN(CC(=O)[O-])CC3)NC(=O)CCCc3ccc(I)cc3)cccc12.[177Lu+3] |  | human serum | 24 h, 37 °C, 177Lu-labelled |  | radiochemical stability | 98.7 ± 1.2%
C/C(N)=N/C(=N\S(=O)(=O)c1ccc(C(F)(F)F)cc1)N1C[C@H](c2ccccc2)C(c2ccc(Cl)cc2)=N1 |  | C57BL/6 mouse, heart | intravenous, 10 mg/kg |  | Cmax | 14300 ng/mL
O=C(Nc1cnccc1-c1ccc([18F])cc1)c1ccnc(NC(=O)C2CC2)c1 | ex vivo gamma counting | GSK-3β transgenic mice, early-stage, cortex | intravenous, 120 min, mean, no P-gp inhibitor |  | SUV | 0.03
C#CCCCC(F)/C=C/C(=O)NC1(c2ccc(-c3nc4ccn5c(=O)[nH]nc5c4cc3-c3ccccc3)cc2)CCC1 (centres unmarked) |  | microsomes, liver, mouse CD-1 | 1 µM, pH 7.4, 37 °C, phosphate buffer 100 mM, with: NADPH |  | first-order rate constant | -0.045 ± 0.004 min⁻¹
CCCCN1C(=O)c2cccc3c(NCCCCCCCCN4CCOCC4)ccc(c23)C1=O |  | ethyl acetate |  |  | fluorescence lifetime | 9.8 ns
C=CC(=O)Nc1cc(Nc2nccc(-c3c[nH]c4ccccc34)n2)c(OC)cc1N(C)CCN(C)C | storage stability | human plasma | 30 d, on ice, MQC level |  | recovery | 52.2%
CC[C@H](C)[C@@H]1NC(=O)[C@H](Cc2ccc(O)cc2)NC(=O)CCCSC[C@@H](C(=O)N(CC(=O)N[C@@H](CC(C)C)C(=O)NCC(N)=O)Cc2ccc(F)cc2)NC(=O)[C@H](CC(N)=O)NC(=O)[C@H](CCC(N)=O)NC1=O |  | human, plasma | intravenous infusion, 20 µg, 25 min infusion, mean value |  | terminal half-life | 11.4 min

SMILES | test | system | setting | how to read | measurement | result
CC[C@H](C)[C@H](NC(=O)[C@H](N)Cc1ccc(O)cc1)C(=O)N[C@H]1CSSC[C@@H](C(=O)N(C)[C@H](C(=O)N[C@@H](CCCCN)C(=O)N[C@@H](CCCCN)C(=O)N[C@@H](CCCCN)C(N)=O)[C@@H](C)CC)NC(=O)[C@H](CCCNC(=N)N)NC(=O)[C@H](Cc2c[nH]cn2)NC(=O)[C@H](C)NC(=O)CN(C)C(=O)[C@H](Cc2c[nH]c3ccccc23)NC(=O)[C@H](CC(=O)O)NC(=O)[C@H](CCC(N)=O)NC(=O)[C@H](Cc2cn(C)c3ccccc23)NC(=O)[C@H](C(C)C)NC1=O | SPR-based competition | cynomolgus monkey, vitreous | intravitreal, 500 µg single, 2160 h, mean of eyes |  | concentration | 0.1 to 0.12 µM
O=S(=O)(N[C@H]1CCO[C@@H](C2c3ccccc3CCc3ccccc32)C1)c1ccc(OC(F)(F)F)cc1 |  | mouse, brain homogenate | oral, 30 mg/kg, 2 h |  | brain concentration | 1160 ng/g
CC[C@H](C)[C@H](NC(=O)[C@H](Cc1ccc(O)cc1)NC(=O)[C@@H](NC(=O)[C@H](CCCNC(=N)N)NC(=O)[C@@H](N)CC(=O)O)C(C)C)C(=O)N[C@@H](Cc1c[nH]cn1)C(=O)N1CCC[C@H]1C(=O)O | LC-MS/MS | Sprague-Dawley rat, both sexes, plasma | subcutaneous, 10 mg/kg/day, day 0, 0.75 h, 45 min |  | plasma concentration | 9.05 ng/mL
O=C1c2sc(-c3ccc(N4CCC(CO)CC4)nc3F)nc2CCN1c1cccnc1 |  | CD1 mouse, brain | i.v., dose not given, 0.033 h |  | concentration | 781 ng/g and 782 ng/g and 690 ng/g
COc1cccc(OC)c1-c1cc(C(=O)NC2(C(=O)O)C3CC4CC(C3)CC2C4)nn1-c1ccc(C(=O)N(C)CCCN(C)CCCN(C)C(=O)[C@H](CCCCNC(=O)[C@H](CC(C)C)NC(=O)C2OC2C(=O)O)NC(=O)CN2CCN(CC(=O)[O-])CCN(CC(=O)[O-])CCN(CC(=O)[O-])CC2)cc1C(C)C.[177Lu+3] (mixture of isomers) |  | mouse, HT-29 xenograft, HT-29 tumour | 4 h post injection |  | tissue uptake | 16.5 %ID/g
CCc1cnc(NC(=O)c2cc(S(=O)(=O)N3CCOCC3)ccc2N(C)C2CCCC2)s1 |  | mouse | 10 mg/kg, 3 doses |  | serum ALT | 31.7 IU/L
CCCC[C@H](OC(C)=O)c1ccccc1C(=O)O |  | Sprague-Dawley rats, both sexes, whole blood | intravenous, 1.25 mg/kg single dose |  | clearance | 9.17 ± 1.28 mL/min/kg
CCCCN1C(=O)c2cccc3c(NCCN4CCOCC4)ccc(c23)C1=O |  | toluene |  |  | Stokes shift | 77 nm
COc1ccc(Nc2nc(Nc3ccc(OCCOCCOCC[18F])cc3)ncc2Br)cc1 |  | ICR mice, S180 tumour | intravenous, 370 kBq, 60 min | baseline: tumour over blood | uptake ratio | 1.26
CCC1(CC)CC(=O)N(C2c3cc(C(=O)NC4c5ccccc5CC4O)ccc3OC2(C)COC)C(=N)N1 (centres unmarked) |  | male beagle dog, plasma | intravenous |  | Vd | 4.1 L/kg
CNc1cc(N)c(C(N)=O)cn1 |  | Han Wistar rats, male, plasma | oral, 30 mg/kg, 3.00 h |  | plasma concentration | 9.05 µM
COc1ccc(/C=C/c2nc3c(Nc4ccc(Cl)cc4)ncnc3[nH]2)cc1OC | HPLC | solution | after 1 h light exposure |  | purity | 99.7%
CCCCN1C(=O)c2cccc3c(NCCCCCCN4CCOCC4)ccc(c23)C1=O |  | water | pH 6.0 |  | Stokes shift | 103 nm
CN(C(=O)C(C)(C)c1cc(C(F)(F)F)cc(C(F)(F)F)c1)c1cnc(N2C[C@H]3COCCN3C[C@H]2CO)cc1-c1ccc(F)cc1CO |  | human liver microsomes |  |  | fraction unbound in microsomes | 0.466
O=C([O-])CN1CCN(CC(=O)[O-])CCN(CC(CCCc2ccccc2[N+](=O)[O-])N(CC(=O)[O-])CC(=O)[O-])CC1.[90Y+3] (centres unmarked) | TLC | human serum | 0 h, pH 7, 37 °C |  | intact radiolabelled complex | 100%
Cc1nc(N)nc2c1C(=O)N[C@@H](c1ccc(F)cc1-c1cccc(O[11CH3])n1)C2 | ex vivo biodistribution | mice, U87 subcutaneous xenograft, bone | 60 min post-injection, baseline, vehicle pre-treatment |  | SUV | 0.8 ± 0.4
